Results of several laboratories.
Lines come from different studies, so protocols differ. ± marks the error that the study gave.
Cell line: PC-3

Structure (SMILES) | assay | setting | scale | endpoint | result
COc1c(C)cc2c(c1OC)OCO2 | cell growth or viability, MTT | 72 h |  | GI50 | > 250 µM
CSCC[C@H](NC(=O)[C@H](CC(C)C)NC(=O)[C@H](Cc1c[nH]cn1)NC(=O)CNC(=O)[C@@H](NC(=O)[C@H](C)NC(=O)[C@H](Cc1c[nH]c2ccccc12)NC(=O)[C@H](CCC(N)=O)NC(=O)CCCCCCCNC(=S)Nc1ccc(C[C@H]2CN(CC(=O)O)CCN(CC(=O)O)CCN2CC(=O)O)cc1)C(C)C)C(N)=O [copper-64 labelled] |  | 0 to 60 min, 64Cu-labelled |  | initial internalization velocity | 8.9 fmol/mg/min
CSCC[C@H](NC(=O)[C@H](CC(C)C)NC(=O)[C@H](Cc1c[nH]cn1)NC(=O)CNC(=O)[C@@H](NC(=O)[C@H](C)NC(=O)[C@H](Cc1c[nH]c2ccccc12)NC(=O)[C@H](CCC(N)=O)NC(=O)CCCCCCCNC(=O)[C@@H](CO)NC(=O)[C@@H](CO)NC(=O)[C@@H](CCCCNC(=O)Cn1ccnc1[N+](=O)[O-])NC(=O)CN1CCN(CC(=O)O)CCN(CC(=O)O)CCN(CC(=O)O)CC1)C(C)C)C(N)=O [indium-111 labelled] |  | concentration not given, 8 h, hypoxia |  | retained internalized radioactivity | 60.7%
O=C(O)CCC(NP(=O)(O)OCCC[C@@H](NC(=O)CCC(NC(=O)c1ccc([18F])cc1)C(=O)O)C(=O)O)C(=O)O (stereo partly drawn) |  | 1 h |  | cell uptake | 0.18 ± 0.13%
CCCCCCCCC=CCCCCCCCC(=O)OC(COC(=O)Cc1c(C)n(C(=O)c2ccc(Cl)cc2)c2ccc(OC)cc12)COP(=O)([O-])OCC[N+](C)(C)C (stereo not drawn) | SRB |  | relative to: MCF-10A IC50 over PC-3 IC50 | selectivity index | 5.43
O=C(O)CCC(NP(=O)(O)OCCC[C@@H](NC(=O)CCC(NC(=O)CCCCCNC(=O)CCCCCNC(=O)c1ccc([18F])cc1)C(=O)O)C(=O)O)C(=O)O (stereo partly drawn) |  | 2 h |  | cell uptake | 0.15 ± 0.01%
CC(C)=CCC/C(C)=C/C[P+](c1ccccc1)(c1ccccc1)c1ccccc1 | cell growth or viability, MTT | 72 h |  | GI50 | 0.296 µM
CSCC[C@H](NC(=O)[C@H](CC(C)C)NC(=O)[C@H](Cc1c[nH]cn1)NC(=O)CNC(=O)[C@@H](NC(=O)[C@H](C)NC(=O)[C@H](Cc1c[nH]c2ccccc12)NC(=O)[C@H](CCC(N)=O)NC(=O)CCCCCCCNC(=O)[C@@H](CCCCNC(=O)Cn1ccnc1[N+](=O)[O-])NC(=O)[C@@H](CCCCNC(=O)Cn1ccnc1[N+](=O)[O-])NC(=O)[C@@H](CCCCNC(=O)Cn1ccnc1[N+](=O)[O-])NC(=O)CN1CCN(CC(=O)O)CCN(CC(=O)O)CCN(CC(=O)O)CC1)C(C)C)C(N)=O [indium-111 labelled] |  | concentration not given, 8 h, normoxia |  | retained internalized radioactivity | 29.7%
COc1cc(C)cc2c1OCO2 | cell growth or viability, MTT | 72 h |  | GI50 | 3.51 µM
CSCC[C@H](NC(=O)[C@H](CC(C)C)NC(=O)[C@H](Cc1c[nH]cn1)NC(=O)CNC(=O)[C@@H](NC(=O)[C@H](C)NC(=O)[C@H](Cc1c[nH]c2ccccc12)NC(=O)[C@H](CCC(N)=O)NC(=O)CCCCCCCNC(=O)[C@@H](CO)NC(=O)[C@@H](CO)NC(=O)[C@@H](CO)NC(=O)CN1CCN(CC(=O)O)CCN(CC(=O)O)CCN(CC(=O)O)CC1)C(C)C)C(N)=O [indium-111 labelled] |  | concentration not given, 8 h, normoxia |  | retained internalized radioactivity | 34.8%
CCC[P+](c1ccccc1)(c1ccccc1)c1ccccc1 | cell growth or viability, MTT | 72 h |  | GI50 | 1.83 µM
O=C(C[P+]([Au-][Cl])(c1ccccc1)c1ccccc1)[O][Ti+2][O]C(=O)C[P+]([Au-][Cl])(c1ccccc1)c1ccccc1.c1cc[cH-]c1.c1cc[cH-]c1 | cell viability, XTT | 72 h |  | IC50 | 27.1 µM
CSCC[C@H](NC(=O)[C@H](CC(C)C)NC(=O)[C@H](Cc1c[nH]cn1)NC(=O)CNC(=O)[C@@H](NC(=O)[C@H](C)NC(=O)[C@H](Cc1c[nH]c2ccccc12)NC(=O)[C@H](CCC(N)=O)NC(=O)CCCCCNC(=O)CCN(CCNC(=O)c1ccc(F)cc1)CCC(=O)NCCCC[C@@H]1NC(=O)[C@@H](Cc2ccc(O)cc2)NC(=O)[C@H](CC(=O)O)NC(=O)CNC(=O)[C@H](CCCNC(=N)N)NC1=O)C(C)C)C(N)=O [fluorine-18 labelled] |  | 5 min, 37 °C | relative to: added radioactivity | cellular uptake | 2.64 ± 0.22%
COc1ccc(C(c2c(C)nn(-c3ccccc3)c2O)c2c(C)nn(-c3ccccc3)c2O)cc1 | cell growth or viability, MTT | 48 h |  | IC50 | 30.5 µM
CCCc1cc(OC)c(OC)c(OC)c1OC | cell growth or viability, MTT | 72 h |  | GI50 | > 250 µM
O=C(O)CCC(NP(=O)(O)OCCC[C@@H](NC(=O)CCC(NC(=O)CCCCCNC(=O)c1ccc([18F])cc1)C(=O)O)C(=O)O)C(=O)O (stereo partly drawn) |  | 1 h |  | cell uptake | 0.04 ± 0.01%
CCCc1cc(OC)c2c(c1OC)OCO2 | cell growth or viability, MTT | 72 h |  | GI50 | > 250 µM
CSCC[C@H](NC(=O)[C@H](CC(C)C)NC(=O)[C@H](Cc1c[nH]cn1)NC(=O)CNC(=O)[C@@H](NC(=O)[C@H](C)NC(=O)[C@H](Cc1c[nH]c2ccccc12)NC(=O)[C@H](CCC(N)=O)NC(=O)CNC(=O)[C@H](CO)NC(=O)CNC(=O)CCCCCCCNC(=O)CCC(=O)Nc1ccc(CNC23CNCCNCC(N)(CNCCNC2)CNCCNC3)cc1)C(C)C)C(N)=O [copper-64 labelled] |  | 0 to 60 min |  | initial internalization rate | 3.2 fmol/mg/min
COc1cc(C(c2c(C)nn(-c3ccccc3)c2O)c2c(C)nn(-c3ccccc3)c2O)cc(OC)c1OC | cell growth or viability, MTT | 48 h |  | IC50 | 28.4 µM
CCCCCCCCc1ccc(C(=O)N[C@@H](CO)C(=O)N[C@H](C(=O)N[C@@H](C)C(=O)N[C@H](C(=O)O)[C@@H](C)CC)[C@@H](C)OP(=O)(O)O)cc1 | cell growth or viability, MTT | 72 h |  | IC50 | 55.7 µM
CCCCCCCCCCCCCCCC[P+](c1ccccc1)(c1ccccc1)c1ccccc1 | cell growth or viability, MTT | 72 h |  | GI50 | 0.25 µM
Cc1ccc(C(c2c(C)nn(-c3ccccc3)c2O)c2c(C)nn(-c3ccccc3)c2O)cc1 | cell growth or viability, MTT | 48 h |  | IC50 | 28.5 µM
CCCc1cc2c(c(OC)c1OC)OCO2 | cell growth or viability, MTT | 72 h |  | GI50 | > 250 µM
CCCNC(=O)[C@H](CC(C)C)NC(=O)[C@H](Cc1c[nH]cn1)NC(=O)CNC(=O)[C@@H](NC(=O)[C@H](C)NC(=O)[C@H](Cc1c[nH]c2ccccc12)NC(=O)[C@H](CCC(N)=O)NC(=O)[C@@H](Cc1ccccc1)NC(=O)CCCCCNC(=O)CN1CCN(CC(=O)O)CCN(CC(=O)O)CCN(CC(=O)O)CC1)C(C)C [indium-111 labelled] |  | 60 min, 37 °C |  | internalization | 12%

For quick reference, copied from above:
Structure (SMILES) | assay | setting | scale | endpoint | result
O=C(C[P+]([Au-][Cl])(c1ccccc1)c1ccccc1)[O][Ti+2][O]C(=O)C[P+]([Au-][Cl])(c1ccccc1)c1ccccc1.c1cc[cH-]c1.c1cc[cH-]c1 | cell viability, XTT | 72 h |  | IC50 | 27.1 µM
O=C(O)CCC(NP(=O)(O)OCCC[C@@H](NC(=O)CCC(NC(=O)CCCCCNC(=O)c1ccc([18F])cc1)C(=O)O)C(=O)O)C(=O)O (stereo partly drawn) |  | 1 h |  | cell uptake | 0.04 ± 0.01%
